Assay results of several laboratories.
Numbers after ± are the reported error. ≈ marks a conversion by molar mass, not a printed value.

SMILES	assay	test system	conditions	scale	quantity	value
CC(=O)N[C@@H](CC(N)=O)C(=O)NCC(=O)N[C@@H](C)C(=O)N[C@@H](C)C(N)=O	1H NMR	sodium phosphate buffer 50 mM	pH 5.1, 55 °C		half-life of Asn form	203 h
CC1=CC(C)=[N+]2C1=C(CO)c1c(C)cc(C)n1[B-]2(F)F		DMSO/MeOH 1:1	10 min, 510 nm irradiation 2.44 J/cm2		photostability	stable
COc1ccc2c(c1)c(CC(=O)Nc1nnc(CCCCc3ccc(NC(=O)Cc4cccc(OC(F)(F)F)c4)nn3)[se]1)cn2C		water			aqueous solubility	~0.31 µg/mL (≈ 0.442 µM)
Cc1ccc(OCC(=O)N(Cc2cccs2)c2ccn[nH]2)cc1		male Sprague-Dawley rat, plasma	oral, 10 mg/kg, single dose		Cmax	2.62 ng/mL
CC[C@@H](C)[C@H]1NC(=O)[C@@H]([C@H](C)O)NC(=O)[C@@H](Cc2c[nH]cn2)NC(=O)CNC(=O)[C@@H](CCCNC(=N)N)NC(=O)CNC(=O)[C@@H](Cc2ccccc2)NC1=O		Wistar rat, female, vitreous	ocular, 10 µL eye drop, 3 h		concentration	~391 nM
CC(C)[C@H](NC(=O)CNC(=O)[C@H](CCC(N)=O)NC(=O)[C@H](C)N)C(=O)O	LC-MS/MS	human, male, plasma	intravenous, 20 mg/kg three times daily, day 3, first dose, 10 min infusion, geometric mean		volume of distribution	7 L/kg
O=C(N[C@@H](CC1CCCCC1)C(=O)N[C@@H](C[C@H]1CCNC1=O)C(=O)C(=O)NC1CC1)OCc1cccc(Cl)c1		rat, Sprague-Dawley, female, plasma	oral, 10 mg/kg		volume of distribution	0.0019 (mg/kg)/(ng/mL)
Cn1c(=O)oc2ccc(-c3ccc(CC(C#N)NC(=O)C4CNCCCO4)c(F)c3)cc21 (stereo not shown)	item: alanine aminotransferase increased	human	40 mg single dose, fasted		subjects with TEAE	16.7%
Cc1cc(O)cc(O)c1C(=O)c1c2c3c(c(O)cc(C)c3oc1=O)C(=O)c1c(O)cc(O)cc1-2		Caco-2 monolayer	50 µM, 3 h, pH 7.4	relative to: AP to BL over BL to AP	efflux ratio	21.1
CONC(=O)/C=C/c1cccc(S(=O)(=O)Nc2ccccc2)c1		human, moderate liver dysfunction, plasma	intravenous, 400 mg/m^2 belinostat, cycle 1 day -7, geometric mean	relative to: metabolite over belinostat	Cmax metabolic ratio	0.149
CCCCCCCCCCCCCCCC(=O)N[C@@H](CCC(=O)NCCCC[C@H](NC(=O)[C@H](C)NC(=O)[C@H](C)NC(=O)[C@H](CCC(N)=O)NC(=O)CNC(=O)[C@H](CCC(=O)O)NC(=O)[C@H](CC(C)C)NC(=O)[C@H](Cc1ccc(O)cc1)NC(=O)[C@H](CO)NC(=O)[C@H](CO)NC(=O)[C@@H](NC(=O)[C@H](CC(=O)O)NC(=O)[C@H](CO)NC(=O)[C@@H](NC(=O)[C@H](Cc1ccccc1)NC(=O)[C@@H](NC(=O)CNC(=O)[C@H](CCC(=O)O)NC(=O)[C@H](C)NC(=O)[C@@H](N)Cc1cnc[nH]1)[C@@H](C)O)[C@@H](C)O)C(C)C)C(=O)N[C@@H](CCC(=O)O)C(=O)N[C@@H](Cc1ccccc1)C(=O)N[C@H](C(=O)N[C@@H](C)C(=O)N[C@@H](Cc1c[nH]c2ccccc12)C(=O)N[C@@H](CC(C)C)C(=O)N[C@H](C(=O)N[C@@H](CCCNC(=N)N)C(=O)NCC(=O)N[C@@H](CCCNC(=N)N)C(=O)NCC(=O)O)C(C)C)[C@@H](C)CC)C(=O)O		healthy Chinese men	sc, dose not given		adverse event incidence	22.4%
N#Cc1cnc2cc(OCC3CCNCC3)c(F)cc2c1Nc1cc(F)c(OCc2cccc(Cl)n2)cc1Cl		female CD-1 mouse, plasma	oral, 20 mg/kg		MRT	8.9 h
O=C(O)C1CN(Cc2ccc(-c3noc(-c4ccc(OCC[18F])c(C(F)(F)F)c4)n3)cc2)C1		Sprague-Dawley rat, male, normal, thymus	iv, 5 min		tissue uptake	0.15 ± 0.023 %ID/g
NS(=O)(=O)c1ccc(-n2cc(CNc3ccc(Cl)cc3)c(-c3ccc(OCc4ccccc4)cc3)n2)cc1		rat, gastric mucosa	oral, 60 mg/kg, 17 h	relative to: control score subtracted	ulcer severity index	0.93 ± 0.12
O=C([O-])CN1CCN(CC(=O)[O-])CCN(CC(=O)NCC2CCC(C(=O)NC(Cc3ccc4ccccc4c3)C(=O)NCCCCC(NC(=O)NC(CCC(=O)O)C(=O)O)C(=O)O)CC2)CCN(CC(=O)[O-])CC1.[44Sc+3] (stereo not shown)	transmetallation stability		2 h, 37 °C, added: Mg2+ 10 mM		intact complex	98 ± 0.8%
CC(C)(Sc1ccncc1-c1ccc(C#N)c2ccccc12)C(=O)OC1OC(C(=O)O)C(O)C(O)C1O (stereo not shown)		plasma	oral, 15 mg, normal renal function, fasted		AUC(0-inf)	233 ng·h/mL
COCC1CN(C2CCN(c3cc(OC)c(Nc4ncc(Br)c(Nc5ccc6c(c5P(C)(C)=O)OCCO6)n4)cc3C)CC2)C1		human patients	oral, 10 to 240 mg once daily		treatment-related Anorexia, all grades	33.3%
Cc1ccc(/N=N/c2c(O)ccc3ccccc23)c(C)c1		rat whole blood extract	0.2 µg/L, 30 days, -20 °C, long-term storage		measured concentration	0.196 µg/L
N=C(N)NCCC[C@H](NC(=O)[C@H](CCCNC(=N)N)NC(=O)[C@H](CCCNC(=N)N)NC(=O)[C@H](CCCNC(=N)N)NC(=O)[C@H](CCCNC(=N)N)NC(=O)[C@H](CCCNC(=N)N)NC(=O)[C@H](CCCNC(=N)N)NC(=O)[C@H](CCCNC(=N)N)NC(=O)[C@H](CCCNC(=N)N)NC(=O)[C@H](CCCNC(=N)N)NC(=O)[C@H](CCCNC(=N)N)NC(=O)[C@H](CCCNC(=N)N)NC(=O)[C@H](CCCNC(=N)N)NC(=O)[C@H](CCCNC(=N)N)NC(=O)[C@H](CCCNC(=N)N)NC(=O)[C@H](CCCNC(=N)N)NC(=O)[C@H](CCCNC(=N)N)NC(=O)[C@H](CCCNC(=N)N)NC(=O)[C@H](CCCNC(=N)N)NC(=O)[C@H](CCCNC(=N)N)NC(=O)c1ccc2c(c1)C(=O)OC21c2ccc(O)cc2Oc2cc(O)ccc21)C(=O)O		bovine cartilage explants	7 days, added: 10 x PBS		desorbed fraction	50 to 80%

SMILES	assay	test system	conditions	scale	quantity	value
O=C(CCc1ccc(CNC(C(=O)OC2CCCC2)C2CCCCC2)cn1)NO (stereo not shown)		human, plasma	oral, 40 mg once daily, median	relative to: day 7 over day 1	accumulation ratio Cmax	1.77
NCCn1c2ccc([N+](=O)[O-])cc2c(=O)n1Cc1ccccc1	resazurin	peritoneal macrophages, BALB/c mice	48 h, 10% FBS		CC50	140 ± 16.2 µM
CCCC(CCC)NC(=O)c1ccc(OS(=O)(=O)O)c(OC)c1		male Sprague-Dawley rat, plasma	oral, 50 mg/kg of parent drug		Tmax	2 h
C/C=C/CNC(=N)NCCCCCCCCN1CCCc2cc(Cl)ccc2COc2ccccc2CNC(=N)NC1=O		PAMPA	500 µM, 5 h, pH 7.4		Papp	< 0.01 ×10⁻⁶ cm/s
NS(=O)(=O)c1ccc(N2N=C(C(F)(F)F)CC2c2ccc(F)cc2F)cc1 (stereo not shown)		Beagle dog, both sexes, plasma	oral, 4 mg/kg, single dose, median		Tlast	192 h
CCCC1OC2CC3C4CCC5=CC(=O)C=CC5(C)C4C(O)CC3(C)C2(C(=O)COC(=O)CN)O1 (stereo not shown)		rat lung homogenate	200 µg/mL, 6 h		hydrolysed conjugate	84%
CCC(=O)N[C@@H](C)C(=O)OCC(=O)N[C@@H](C)C(=O)O		water	pH 3, 50 °C		depolymerization half-life	232 h
CCCCCCCCCCCCCCCC(=O)N[C@@H](CCCCN)C(=O)N[C@@H](CCCCN)C(=O)N[C@@H](CO)C(=O)N[C@@H](CCCNC(=N)N)C(=O)N[C@@H](C)C(=O)N[C@@H](CC(C)C)C(=O)N[C@@H](Cc1ccccc1)C(N)=O		cynomolgus monkey, male	3 mg/kg, day 1		prothrombin time	11.8 ± 0.4 s
CN1CCC[C@]1(C)/C=C/S(=O)(=O)NC(=O)Nc1c2c(cc3c1CCC3)CCC2		human, plasma	oral, 25 to 400 mg, single dose		elimination half-life	6 to 7 h
CC[C@H](C)[C@@H]1NC(=O)[C@H](Cc2ccccc2)NC(=O)[C@@H](NC(=O)[C@H](CCCNC(=N)N)NC(=O)[C@H](Cc2ccccc2)NC(=O)[C@H](Cc2ccccc2)NC(=O)[C@H](CCCCN)NC(=O)[C@H](CO)NC(=O)[C@H](CC(C)C)NC(=O)[C@H](CCCNC(=N)N)NC(=O)[C@H](CCSC)NC(=O)[C@H](C)N)CCCCNC(=O)NC[C@@H](C(=O)N[C@@H](CCCNC(=N)N)C(=O)N[C@@H](CCCCN)C(=O)N[C@@H](CCCCN)C(=O)O)NC(=O)[C@H](CC(C)C)NC1=O	circular dichroism	20% TFE in PBS	200 µM, pH 7.4, 25 °C		helicity	16.9%
N=C(N)NCCC[C@@H]1NC(=O)[C@H](Cc2c[nH]c3ccccc23)NC(=O)[C@@H](CC2CCCCC2)NC(=O)[C@@H]2CCCN2C(=O)[C@@H](NC(=O)CCc2ccccc2)CCCNC1=O		C57BL/6J mouse, spinal cord	intravenous, 1 mg/kg, single dose, two-compartment model		beta elimination rate constant	0.35 h⁻¹
CC[C@H](C)[C@@H]1NC(=O)[C@H](Cc2ccccc2)NC(=O)[C@@H](NC(=O)[C@H](CCCNC(=N)N)NC(=O)[C@H](Cc2ccccc2)NC(=O)[C@H](Cc2ccccc2)NC(=O)[C@H](CCCCN)NC(=O)[C@H](CO)NC(=O)[C@H](CC(C)C)NC(=O)[C@H](CCCNC(=N)N)NC(=O)[C@H](CCSC)NC(=O)[C@H](C)N)CCCNC(=O)NCCC[C@@H](C(=O)N[C@@H](CCCNC(=N)N)C(=O)N[C@@H](CCCCN)C(=O)N[C@@H](CCCCN)C(=O)O)NC(=O)[C@H](CC(C)C)NC1=O	circular dichroism	20% TFE in PBS	200 µM, pH 7.4, 25 °C		helicity	14.6%
CC(C)c1cnc(-c2cc(Cl)ccc2F)cc1Nc1ccncc1C(=O)NC(CO)CO	item: hypotension	human patients	oral, dose not given, grade 3		patients with related SAE	2.4%
CC(C)(O)c1ncc([S@](N)(=O)=NC(=O)Nc2c3c(cc4c2CCC4)CCC3)s1		healthy human	oral, 30 mg once daily, day 14, capsule formulation, median		Tmax	1.5 h
CC(NC(=O)OC1OC(C(=O)O)C(O)C(O)C1O)c1cc(Cl)ccc1Cn1c(=S)[nH]c(=O)c2[nH]ccc21 (stereo not shown)		dog, both sexes, plasma	oral, 100 mg/kg/day	relative to: dog over human 10 mg	exposure ratio	1.4
O=C(NCCCN(CCCCN(CCCNC(=O)c1cccc(=O)n1[O-])C(=O)c1cccc(=O)n1[O-])C(=O)c1cccc(=O)n1[O-])c1cccc(=O)n1[O-].[89Zr+4]	radio-TLC	PBS	1 d, pH 7.4, 37 °C, added: Ni^2+ 10-fold excess		intact complex	98.4 ± 2.2%
CC(C)C[C@H](NC(=O)[C@H](CCCNC(=N)N)NC(=O)[C@H](CCC(N)=O)NC(=O)[C@@H](NC(=O)[C@H](C)NC(=O)[C@@H]1CSSC[C@H](NC(=O)[C@@H](N)CCCCN)C(=O)N[C@@H](CC(N)=O)C(=O)N[C@@H]([C@@H](C)O)C(=O)N[C@@H](C)C(=O)N[C@@H]([C@@H](C)O)C(=O)N1)[C@@H](C)O)C(=O)N[C@@H](C)C(=O)N[C@@H](CC(N)=O)C(=O)N[C@@H](Cc1ccccc1)C(=O)N[C@@H](CC(C)C)C(=O)N[C@H](C(=O)N[C@@H](CCCNC(=N)N)C(=O)N[C@@H](CO)C(=O)N[C@@H](CO)C(=O)N[C@@H](CC(N)=O)C(=O)N[C@@H](CC(N)=O)C(=O)N[C@@H](Cc1ccccc1)C(=O)N1CCC[C@H]1C(=O)N[C@@H](C)C(=O)N1CCC[C@H]1C(=O)N[C@@H](CC(C)C)C(=O)N[C@@H](CO)C(=O)N[C@@H](CO)C(=O)N[C@H](C(=O)N[C@@H](CC(N)=O)C(=O)N[C@H](C(=O)NCC(=O)N[C@@H](CO)C(=O)N[C@@H](CC(N)=O)C(=O)N[C@H](C(=O)N[C@@H](Cc1ccc(O)cc1)C(N)=O)[C@@H](C)O)C(C)C)[C@@H](C)O)C(C)C		PBS	500 µM, 24 h, pH 7.4, added: equimolar insulin	relative to: time zero	loss from soluble fraction	< 15%
CCCCCCCCCCCC(=O)O[C@@H](C(=O)O[C@H]1C[C@@]2(O)[C@@H](OC(=O)c3ccccc3)[C@@H]3[C@]4(OC(C)=O)CO[C@@H]4C[C@H](O)[C@@]3(C)C(=O)[C@H](O)C(=C1C)C2(C)C)[C@@H](NC(=O)OC(C)(C)C)c1ccccc1		fresh mouse plasma	10 µg/mL, 37 °C		disappearance time	8 h
